Published values gathered from unrelated publications.
Every numbered part comes from another study and shows a few of its results, in no order. Positions count from the first letter of the parent shown.
Chain of UniProt Q9UL54 (whole entry, looked up): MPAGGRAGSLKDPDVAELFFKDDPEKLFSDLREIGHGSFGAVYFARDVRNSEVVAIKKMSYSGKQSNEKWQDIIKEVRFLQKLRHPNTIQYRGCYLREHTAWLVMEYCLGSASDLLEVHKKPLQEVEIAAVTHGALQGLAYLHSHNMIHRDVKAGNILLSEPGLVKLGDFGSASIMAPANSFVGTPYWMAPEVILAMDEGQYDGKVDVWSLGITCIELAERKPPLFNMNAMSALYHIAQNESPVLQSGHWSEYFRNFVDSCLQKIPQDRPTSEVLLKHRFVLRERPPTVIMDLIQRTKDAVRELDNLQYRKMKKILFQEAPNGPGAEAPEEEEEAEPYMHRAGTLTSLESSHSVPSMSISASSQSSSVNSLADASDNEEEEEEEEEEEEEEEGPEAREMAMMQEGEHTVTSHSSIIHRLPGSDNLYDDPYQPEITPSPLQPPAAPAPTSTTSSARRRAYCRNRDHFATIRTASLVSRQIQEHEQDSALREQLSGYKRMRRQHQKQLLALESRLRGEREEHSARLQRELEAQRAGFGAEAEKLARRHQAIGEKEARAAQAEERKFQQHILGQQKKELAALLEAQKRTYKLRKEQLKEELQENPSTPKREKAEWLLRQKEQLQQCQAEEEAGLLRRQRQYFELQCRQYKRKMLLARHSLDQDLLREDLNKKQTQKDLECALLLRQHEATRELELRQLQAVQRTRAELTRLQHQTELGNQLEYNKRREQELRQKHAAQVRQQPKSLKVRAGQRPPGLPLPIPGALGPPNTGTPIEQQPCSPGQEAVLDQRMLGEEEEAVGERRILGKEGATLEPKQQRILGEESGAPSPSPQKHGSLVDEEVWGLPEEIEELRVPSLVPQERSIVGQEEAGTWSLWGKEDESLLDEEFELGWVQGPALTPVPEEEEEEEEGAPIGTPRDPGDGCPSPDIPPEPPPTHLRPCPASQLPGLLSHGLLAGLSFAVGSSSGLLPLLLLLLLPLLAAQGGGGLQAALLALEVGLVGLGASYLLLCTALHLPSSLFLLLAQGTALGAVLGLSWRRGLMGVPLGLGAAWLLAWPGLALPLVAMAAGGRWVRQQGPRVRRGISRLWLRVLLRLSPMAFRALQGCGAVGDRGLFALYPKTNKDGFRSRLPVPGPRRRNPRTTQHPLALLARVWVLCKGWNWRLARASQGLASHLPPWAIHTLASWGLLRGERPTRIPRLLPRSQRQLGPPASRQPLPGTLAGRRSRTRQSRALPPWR
Chain of UniProt P22607 (whole entry, looked up): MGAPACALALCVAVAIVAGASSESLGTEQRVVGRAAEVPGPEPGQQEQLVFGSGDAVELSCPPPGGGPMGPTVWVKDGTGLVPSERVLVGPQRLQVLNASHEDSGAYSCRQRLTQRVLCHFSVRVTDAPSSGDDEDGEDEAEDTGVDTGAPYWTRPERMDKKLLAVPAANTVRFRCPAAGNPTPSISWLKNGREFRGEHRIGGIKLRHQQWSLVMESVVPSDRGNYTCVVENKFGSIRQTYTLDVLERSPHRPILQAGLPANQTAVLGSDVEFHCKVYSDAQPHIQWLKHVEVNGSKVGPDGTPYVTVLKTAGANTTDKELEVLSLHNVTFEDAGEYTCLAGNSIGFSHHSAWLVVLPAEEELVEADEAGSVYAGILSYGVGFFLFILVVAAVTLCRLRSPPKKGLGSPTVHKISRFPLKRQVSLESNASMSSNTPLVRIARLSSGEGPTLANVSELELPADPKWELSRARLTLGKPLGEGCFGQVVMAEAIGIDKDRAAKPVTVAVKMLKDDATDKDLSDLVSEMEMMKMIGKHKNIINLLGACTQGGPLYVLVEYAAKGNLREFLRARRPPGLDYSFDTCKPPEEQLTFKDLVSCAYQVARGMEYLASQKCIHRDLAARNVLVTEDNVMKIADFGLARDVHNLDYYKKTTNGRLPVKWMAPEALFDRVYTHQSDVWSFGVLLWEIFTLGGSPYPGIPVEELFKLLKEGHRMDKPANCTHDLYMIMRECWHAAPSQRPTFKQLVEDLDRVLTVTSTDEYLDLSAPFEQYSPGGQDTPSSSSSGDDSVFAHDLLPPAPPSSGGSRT
Chain of UniProt Q2M2I8 (whole entry, looked up): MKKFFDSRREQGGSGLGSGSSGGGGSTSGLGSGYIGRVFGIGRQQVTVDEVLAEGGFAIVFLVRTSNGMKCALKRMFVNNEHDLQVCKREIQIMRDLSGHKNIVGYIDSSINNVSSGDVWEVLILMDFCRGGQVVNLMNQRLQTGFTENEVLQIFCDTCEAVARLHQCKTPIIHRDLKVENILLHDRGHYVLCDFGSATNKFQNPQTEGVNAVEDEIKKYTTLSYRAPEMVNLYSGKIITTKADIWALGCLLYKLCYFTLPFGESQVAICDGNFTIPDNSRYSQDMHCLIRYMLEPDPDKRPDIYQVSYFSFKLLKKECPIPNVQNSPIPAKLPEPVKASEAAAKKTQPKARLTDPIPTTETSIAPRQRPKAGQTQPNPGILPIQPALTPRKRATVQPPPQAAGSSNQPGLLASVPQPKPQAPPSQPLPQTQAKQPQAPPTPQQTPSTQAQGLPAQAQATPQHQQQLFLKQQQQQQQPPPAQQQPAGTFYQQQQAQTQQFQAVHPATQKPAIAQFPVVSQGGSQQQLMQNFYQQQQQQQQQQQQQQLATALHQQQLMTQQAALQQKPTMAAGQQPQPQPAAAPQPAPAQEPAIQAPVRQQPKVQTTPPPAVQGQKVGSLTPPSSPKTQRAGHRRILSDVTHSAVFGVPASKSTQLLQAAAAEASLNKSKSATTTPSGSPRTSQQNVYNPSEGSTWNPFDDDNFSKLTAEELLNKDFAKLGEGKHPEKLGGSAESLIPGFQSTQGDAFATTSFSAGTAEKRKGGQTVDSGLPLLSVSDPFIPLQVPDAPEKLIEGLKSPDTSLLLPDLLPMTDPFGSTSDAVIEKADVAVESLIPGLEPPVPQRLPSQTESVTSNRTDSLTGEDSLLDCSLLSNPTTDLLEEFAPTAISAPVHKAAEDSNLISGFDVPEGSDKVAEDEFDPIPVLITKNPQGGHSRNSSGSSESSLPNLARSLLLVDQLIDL
Chain of UniProt Q13705 (whole entry, looked up): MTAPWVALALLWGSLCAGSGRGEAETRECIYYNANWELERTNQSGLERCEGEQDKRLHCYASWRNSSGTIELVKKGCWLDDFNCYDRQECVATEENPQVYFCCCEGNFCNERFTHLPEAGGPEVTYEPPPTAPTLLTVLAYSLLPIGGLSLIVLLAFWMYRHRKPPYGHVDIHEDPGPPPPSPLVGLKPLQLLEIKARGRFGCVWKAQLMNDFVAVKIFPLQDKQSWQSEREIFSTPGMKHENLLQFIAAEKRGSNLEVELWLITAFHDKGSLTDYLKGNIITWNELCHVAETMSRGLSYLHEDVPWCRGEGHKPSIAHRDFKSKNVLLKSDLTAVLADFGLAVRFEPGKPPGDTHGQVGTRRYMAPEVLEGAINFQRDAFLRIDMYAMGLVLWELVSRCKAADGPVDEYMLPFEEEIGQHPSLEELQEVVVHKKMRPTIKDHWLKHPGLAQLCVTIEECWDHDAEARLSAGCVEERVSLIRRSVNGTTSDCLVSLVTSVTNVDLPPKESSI
Chain of UniProt Q13523 (whole entry, looked up): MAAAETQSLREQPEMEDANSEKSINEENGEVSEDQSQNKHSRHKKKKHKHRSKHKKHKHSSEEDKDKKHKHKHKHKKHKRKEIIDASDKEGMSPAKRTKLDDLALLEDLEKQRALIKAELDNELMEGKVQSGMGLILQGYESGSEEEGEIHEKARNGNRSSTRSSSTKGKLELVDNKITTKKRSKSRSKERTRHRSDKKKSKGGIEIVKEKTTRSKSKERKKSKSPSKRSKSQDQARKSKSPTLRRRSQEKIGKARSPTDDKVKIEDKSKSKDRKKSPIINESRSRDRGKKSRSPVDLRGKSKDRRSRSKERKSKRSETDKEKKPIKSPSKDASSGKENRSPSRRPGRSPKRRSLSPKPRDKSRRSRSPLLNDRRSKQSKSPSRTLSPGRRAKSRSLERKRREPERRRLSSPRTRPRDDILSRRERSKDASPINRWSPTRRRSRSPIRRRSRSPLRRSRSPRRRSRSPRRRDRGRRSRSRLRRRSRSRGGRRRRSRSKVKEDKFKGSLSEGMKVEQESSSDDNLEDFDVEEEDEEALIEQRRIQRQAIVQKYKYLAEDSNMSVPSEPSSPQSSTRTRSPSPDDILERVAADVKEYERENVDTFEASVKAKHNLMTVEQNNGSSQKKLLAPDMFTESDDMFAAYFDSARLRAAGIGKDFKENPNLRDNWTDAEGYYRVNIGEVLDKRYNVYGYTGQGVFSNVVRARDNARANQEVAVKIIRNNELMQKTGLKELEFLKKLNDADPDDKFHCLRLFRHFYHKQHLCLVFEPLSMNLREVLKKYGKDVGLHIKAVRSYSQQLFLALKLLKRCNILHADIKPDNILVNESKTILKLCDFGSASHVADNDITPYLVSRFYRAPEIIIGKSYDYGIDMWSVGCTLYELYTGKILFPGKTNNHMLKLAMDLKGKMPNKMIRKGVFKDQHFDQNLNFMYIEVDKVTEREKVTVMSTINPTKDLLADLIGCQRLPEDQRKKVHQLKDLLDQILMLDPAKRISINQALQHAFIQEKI
Chain of UniProt P06239 (whole entry, looked up): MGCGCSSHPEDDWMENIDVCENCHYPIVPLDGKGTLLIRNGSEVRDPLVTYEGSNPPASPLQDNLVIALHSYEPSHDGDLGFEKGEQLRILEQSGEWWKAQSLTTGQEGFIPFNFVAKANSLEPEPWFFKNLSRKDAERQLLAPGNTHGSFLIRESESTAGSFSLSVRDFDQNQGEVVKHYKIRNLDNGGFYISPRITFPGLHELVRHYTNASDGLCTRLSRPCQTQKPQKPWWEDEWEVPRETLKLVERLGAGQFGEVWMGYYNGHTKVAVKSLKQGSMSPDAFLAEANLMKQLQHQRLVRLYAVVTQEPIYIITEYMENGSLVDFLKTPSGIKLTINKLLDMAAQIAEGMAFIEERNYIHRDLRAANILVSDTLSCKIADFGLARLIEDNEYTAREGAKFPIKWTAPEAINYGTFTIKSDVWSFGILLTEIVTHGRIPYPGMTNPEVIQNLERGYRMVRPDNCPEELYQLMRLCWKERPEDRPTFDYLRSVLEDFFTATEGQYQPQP

Sample 1
Structure (SMILES): CC(C)CC(=O)N1CCc2nc(-c3ccc(Br)cc3)nc(N(C)Cc3ccccc3)c2C1
Tested at: 0.1 µM
target	test	remaining binding [%]
Mitogen-activated protein kinase 10 (MAPK10, Homo sapiens, UniProt P53779)	cell-free assay, competition with immobilised ligand	78
Serine/threonine-protein kinase PRP4 homolog (PRPF4B, Homo sapiens, UniProt Q13523)	cell-free assay, competition with immobilised ligand	100
Activin receptor type-2B (ACVR2B, Homo sapiens, UniProt Q13705)	cell-free assay, competition with immobilised ligand	100
Epidermal growth factor receptor (EGFR, Homo sapiens, UniProt P00533, L858R/T790M)	cell-free assay, competition with immobilised ligand	100
AP2-associated protein kinase 1 (AAK1, Homo sapiens, UniProt Q2M2I8)	binding	100
ALK tyrosine kinase receptor (ALK, Homo sapiens, UniProt Q9UM73, C1156Y)	cell-free assay, competition with immobilised ligand	100

Sample 2
Target: Sal-like protein 4, full length isoform B (SALL4, Homo sapiens, UniProt Q9UJQ4-2, residues 1-616)
Technique: universal PBM
Form: double-stranded DNA, one strand shown
Sample: in vitro
Tested at: not given
Notes: 8-mer, flanks averaged, mean of replicates
Reading: higher = stronger binding
Residues (chain): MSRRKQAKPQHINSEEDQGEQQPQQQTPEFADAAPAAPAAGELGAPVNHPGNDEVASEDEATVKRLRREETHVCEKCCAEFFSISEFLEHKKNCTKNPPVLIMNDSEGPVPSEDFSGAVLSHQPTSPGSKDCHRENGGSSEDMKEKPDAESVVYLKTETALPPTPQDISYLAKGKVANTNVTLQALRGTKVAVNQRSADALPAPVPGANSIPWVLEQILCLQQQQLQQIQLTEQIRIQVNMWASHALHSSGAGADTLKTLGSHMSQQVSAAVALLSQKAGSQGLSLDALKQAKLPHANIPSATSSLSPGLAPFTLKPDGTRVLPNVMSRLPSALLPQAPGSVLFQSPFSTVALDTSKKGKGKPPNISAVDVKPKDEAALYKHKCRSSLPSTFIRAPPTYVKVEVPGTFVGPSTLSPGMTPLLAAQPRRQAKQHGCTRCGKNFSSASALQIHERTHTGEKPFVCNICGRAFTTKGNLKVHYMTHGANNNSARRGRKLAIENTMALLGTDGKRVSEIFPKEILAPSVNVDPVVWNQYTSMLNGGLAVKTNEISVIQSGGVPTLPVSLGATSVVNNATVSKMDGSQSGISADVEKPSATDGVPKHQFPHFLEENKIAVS
Oligonucleotide	E-score
CAGCTGAC	-0.177
AGGATTCG	-0.0341
AGAACAAA	0.282
CTGAAGGA	-0.157
TAAGAGAA	0.215
ACAATCCA	0.203
TAGGACTA	0.105
CGCTCACG	-0.247

Sample 3
Compound: COc1cc2ncnc(N3CCN(C(=O)Nc4ccc(Oc5ccccc5)cc4)CC3)c2cc1OC
Read-out: enzyme activity
Action: inhibitor
Tested at: 0.5 µM
Reference: control
target	remaining activity [%]
Serine/threonine-protein kinase TAO2 (TAOK2, Homo sapiens, UniProt Q9UL54)	96.3
Mitogen-activated protein kinase kinase kinase 5 (MAP3K5, Homo sapiens, UniProt Q99683)	102
Rhodopsin kinase GRK7 (GRK7, Homo sapiens, UniProt Q8WTQ7)	95.7
Tyrosine-protein kinase JAK3 (JAK3, Homo sapiens, UniProt P52333)	107
Angiopoietin-1 receptor (TEK, Homo sapiens, UniProt Q02763)	92.6
Tyrosine-protein kinase FRK (FRK, Homo sapiens, UniProt P42685)	90.2
Serine/threonine-protein kinase Nek6 (NEK6, Homo sapiens, UniProt Q9HC98)	103
Tyrosine-protein kinase Lck (LCK, Homo sapiens, UniProt P06239)	92.3
Dual specificity mitogen-activated protein kinase kinase 2 (MAP2K2, Homo sapiens, UniProt P36507)	99.3
Activin receptor type-1B (ACVR1B, Homo sapiens, UniProt P36896)	94.7
Fibroblast growth factor receptor 3 (FGFR3, Homo sapiens, UniProt P22607)	99.9
Fibroblast growth factor receptor 1 (FGFR1, Homo sapiens, UniProt P11362)	89.6
Glycogen synthase kinase-3 beta (GSK3B, Homo sapiens, UniProt P49841)	99
Serine/threonine-protein kinase TBK1 (TBK1, Homo sapiens, UniProt Q9UHD2)	96.3

Sample 4
Variant: D92S
Target: ABI1, truncated, D143A, DHFR fusion (Arabidopsis thaliana)
Technique: DHFR PCA, deep sequencing
Sample: yeast
Notes: methotrexate growth selection, single substitutions
Reference: wild-type fitted maximum
Reading: higher = stronger binding
Parent: PYL1, truncated, DHFR fusion (Arabidopsis thaliana); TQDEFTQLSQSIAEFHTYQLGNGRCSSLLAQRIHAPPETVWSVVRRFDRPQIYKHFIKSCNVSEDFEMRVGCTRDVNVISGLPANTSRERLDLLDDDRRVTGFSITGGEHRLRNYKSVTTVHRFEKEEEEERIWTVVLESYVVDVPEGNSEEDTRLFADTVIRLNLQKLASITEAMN; partner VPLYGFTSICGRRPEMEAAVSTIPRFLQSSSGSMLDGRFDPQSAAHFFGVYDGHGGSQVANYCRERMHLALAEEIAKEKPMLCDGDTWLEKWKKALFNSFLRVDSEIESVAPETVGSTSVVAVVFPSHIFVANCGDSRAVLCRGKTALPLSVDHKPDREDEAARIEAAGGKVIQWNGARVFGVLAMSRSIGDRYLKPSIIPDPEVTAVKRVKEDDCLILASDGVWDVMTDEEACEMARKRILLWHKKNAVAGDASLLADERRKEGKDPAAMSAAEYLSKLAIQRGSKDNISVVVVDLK
setting	relative binding score [%]
added: (+)-ABA 0 µM	-0.505
added: (+)-ABA 0.11 µM	-1.23
added: (+)-ABA 58 µM	34.5
added: (+)-ABA 1.4 µM	-0.434
added: (+)-ABA 0.032 µM	5.38
added: (+)-ABA 200 µM	64.7

For quick reference, copied from above (sample 4):
setting	relative binding score [%]
added: (+)-ABA 0.11 µM	-1.23
added: (+)-ABA 0 µM	-0.505
added: (+)-ABA 58 µM	34.5
